Experimental data collected from several papers.
Numbered parts are unrelated; each lists some results of a single study.

Sample 1
Target: RNA binding protein fox-1 homolog 2, RRM domain, GST-SBP tag (RBFOX2, Homo sapiens, UniProt O43251-10, residues 100-194)
Method: RNA Bind-n-Seq
Form: RNA
Matrix: in vitro
Concentration: 365 nM
Setting: natural RNA segment, single round, ends assumed
Relative to: no-protein control
Reading: higher = stronger binding
Measurement: RBNS enrichment (R)
Constant ends, left off below: GGGAGUUCUACAGUCCGACGAUC … UGGAAUUCUCGGGUGCCAA
Residues (chain): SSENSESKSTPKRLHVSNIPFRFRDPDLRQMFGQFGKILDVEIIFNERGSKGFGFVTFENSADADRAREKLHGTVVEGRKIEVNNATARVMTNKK
AUUGCAUACCAGUGUAAAAAGACUCUGCCUCCCCCCUUUUUGGCUUUUUUACUGGGCUUGGCUGGCCUUGCAGUUUACCAGAUUCAUUUACAGACUCUCUGCUCUGUAUG: 0.854
UAUUACCCAGUAACAUUGAAUGUAGAUGGCUAAACGAUUCUUACUCAGUGUGAUGUAUAAUGAUGCAACAGGGACCCUUGUAAAUUGUCAUACGCCAAUAAAAUGUCACA: 0.246
AAGUGAAAAUUUAUGAAGAGUAUUUGGAAGUGUGUACAGAAAUAAACUAGACUUACAGGUAGGCUAGAUCAGAACGUUAACAUAUGAACCUGCAGAAAUCUGGUAAGACU: 0.641
UCGGUCAGAAGCCCACAGACCCGGAAGUUACCUUUCUUCCCGCCUCCCUGGACCAUAGAAGAGAUGUCACUCCUCUCUGGGUUUUAGUGGAGGGAGGGAGGCCUUCCAUU: 0.19
AAGGUCCCUUUCUGGCUUCUUGGUUCUCCAUGUGACCAAAGCCCAGUGUGGCUUCAUGGGAGCCCUGUUACUUCUCCAUGAAACCCCAGCUCUCUAGGCCUGACUGCCAC: 0.208
AUUUACGCAUGAUAUUUUCCUAAGUAAAAUUGCCAAGUGGACUUGGAAGUCCAGAAAGGAAAAUAAUUUAAAUUAAUGCUGGUGAUCUUAACAAUAUUUUGUAAAAUGAU: 0.875
CCGGGACGCCUAGGAGCCUGGGGGACACUGGAAGAGGGGCCUGUCCAUCCUCACCAUCGCCUUCCCUUUUCUCCUGCACCCCUGUAGUCUACCUCUACAGUCUCCAUGAC: 0.352
GAGCACAUCCAGGAUUAGAUAAGGUACUUAAGUACCUGCCGGCCCACUGUGCACUGCUUGUGAGAAAAUGGAUUAAAAACUAUUCUUACAUUUGUUUUGCCUUUCCUCCU: 0.256
UUUGCAGGCUAGACAUAACCCACUGAUGGAAAUGGUGAAGAAUGAGCUUCAUGUAGGUUUAAAAGUGUAUUCUGAGCCUGUAGAUGAUUAAUCAGGUUUUUAUUCAAUCA: 0.799
GCAUUGGGGAUUUUUGUUCUCAGCUCCCAGGCCGCACUGAACACAGUGUUGCUGCCUUCAGUUUGGUUCUGGCCAUGAGGCCCCUAGUGGGAGCUUUGCCCUUAGGGCUG: 0.341
CCUUUCUGUAGGCUAUUUCCUCUUGCCCAGCAGUGGAUGGAGCGUCCUUGCUAAAAAGGGUUCCAUCUCCUUUAAGGACGUUUUAUUUUUGAUCCAGAGUCCUUGUUUCC: 0.404
CAGGCCUGGCCCCUCUCUGGGAAGGUUGAGAGCUGAGACGGGCAGCCCUGUCCCUUCCUCCAGAUCCGUCUGGUUUUUUACACCGUUUGUUAAUAAAGCCUGAAACCGCU: 0.621

Sample 2
Target: Interferon regulatory factor 5, full length, phosphomimetic (IRF5, Homo sapiens, UniProt Q13568-2, residues 1-514, S451D/S453D/S456D/S462D)
Method: protein-binding microarray
Form: double-stranded DNA, one strand shown
Matrix: in vitro
Concentration: 940 nM top
Setting: 60-bp whole probe
Added: salmon DNA 0.4 mg/ml
Relative to: random background probes
Reading: higher = stronger binding
Measurement: fitted relative affinity
Constant ends, left off below: GCCTAGCAC … GTCTTGATTCGCTTGACGCTGCTG
GACAGTCTCGGTATCGGGACGTGCTAG: 6.58 z-score
GACAGACTGGACACTGGGGACGTGCTA: -0.401 z-score
GACGATTTCAGATTGGAGACGTGCTAG: -0.228 z-score
TTGTGTCTGGGATTTTGTCCGTGCTAG: -0.494 z-score
GACGAACTGAGGCTCGAGACGTGCTAG: -0.349 z-score
GACGATTTCAGTCTCGAGGCGTGCTAG: 1.48 z-score
TTAGATATCGGGACTGGAGTAGTGCTA: -0.139 z-score
TCACCTTCCTCTTTTACACTGTGCTAG: 1.23 z-score
GAACATATTTGTTTCCATTTGTGCTAG: 0.531 z-score
ATAGGTATCGACTATCGGTTAGTGCTA: 5.59 z-score
TTAGGTTTCCTACTGCTTCAGTGCTAG: 0.847 z-score
GAAGGTTCCGGTTTCGGGACGTGCTAG: 4.82 z-score
GACGATTTCAGGCTGGAGACGTGCTAG: -0.321 z-score
TCACCTCTCCATACTTCACTGTGCTAG: 1.26 z-score
GATGGACTGCTACTGCTGACGTGCTAG: -0.486 z-score
TTAGGTTTCCTTATCGTTTAGTGCTAG: 1.88 z-score
GTAGATTTCAGTTCCGATTAGTGCTAG: 1.91 z-score

Sample 3
Target: Sal-like protein 4, full length isoform A (SALL4, Homo sapiens, UniProt Q9UJQ4, residues 1-1053)
Sequence of UniProt Q9UJQ4 (whole entry, looked up): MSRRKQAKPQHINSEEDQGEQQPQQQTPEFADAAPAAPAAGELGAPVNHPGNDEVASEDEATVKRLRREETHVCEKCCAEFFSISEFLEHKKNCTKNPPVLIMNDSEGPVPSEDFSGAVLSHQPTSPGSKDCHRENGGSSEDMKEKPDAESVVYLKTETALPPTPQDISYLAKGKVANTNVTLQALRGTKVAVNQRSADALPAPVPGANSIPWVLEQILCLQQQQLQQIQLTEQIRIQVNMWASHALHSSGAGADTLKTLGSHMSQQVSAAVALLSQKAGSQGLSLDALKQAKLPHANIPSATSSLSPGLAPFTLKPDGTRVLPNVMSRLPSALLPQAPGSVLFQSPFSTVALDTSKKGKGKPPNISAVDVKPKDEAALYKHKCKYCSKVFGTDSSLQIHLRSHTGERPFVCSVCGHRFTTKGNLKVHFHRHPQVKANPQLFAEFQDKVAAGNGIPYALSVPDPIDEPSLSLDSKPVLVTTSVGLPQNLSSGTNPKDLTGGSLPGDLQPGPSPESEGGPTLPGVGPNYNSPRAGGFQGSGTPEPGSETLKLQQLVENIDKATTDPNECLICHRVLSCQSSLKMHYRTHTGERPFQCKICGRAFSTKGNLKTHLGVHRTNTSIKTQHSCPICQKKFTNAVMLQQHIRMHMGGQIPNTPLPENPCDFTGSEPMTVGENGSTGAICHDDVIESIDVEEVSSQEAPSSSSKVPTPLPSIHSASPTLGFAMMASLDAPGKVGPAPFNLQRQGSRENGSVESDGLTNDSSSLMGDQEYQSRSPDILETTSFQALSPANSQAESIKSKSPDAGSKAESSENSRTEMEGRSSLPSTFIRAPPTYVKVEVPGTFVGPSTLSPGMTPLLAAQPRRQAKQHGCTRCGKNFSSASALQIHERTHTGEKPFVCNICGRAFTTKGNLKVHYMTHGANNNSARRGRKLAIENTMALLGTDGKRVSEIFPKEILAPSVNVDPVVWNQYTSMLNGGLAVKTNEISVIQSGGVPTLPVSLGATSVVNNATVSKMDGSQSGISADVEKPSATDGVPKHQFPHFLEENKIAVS
Method: universal PBM
Form: double-stranded DNA, one strand shown
Matrix: in vitro
Concentration: 600 nM
Setting: 8-mer, flanks averaged, mean of replicates
Reading: higher = stronger binding
Measurement: E-score
ACTGGCCT: -0.157
CACCGATC: -0.233
GACTAGCC: -0.168
ACACCCGT: -0.204
ATCTACGC: 0.177
CGATTAAA: 0.218
AGACAACT: 0.107
TATGTCGA: 0.189
GGTCGGCA: -0.245
ACGTGCCC: -0.265
ACCCTGCA: 0.0228
AGTAGCAC: -0.165
GCTGATTA: 0.0907
CGTCTTTC: -0.107
CTTTAAAA: 0.287
CGAGCCAG: -0.236
AGCGTTAG: -0.0722
CGGTAGTC: -0.219
CTTATACC: 0.173

Sample 4
Target: Histone acetyltransferase KAT6A, winged helix 2, GST fusion (KAT6A, Homo sapiens, UniProt Q92794, residues 85-181)
Method: protein binding microarray
Form: double-stranded DNA, one strand shown
Matrix: in vitro
Concentration: not given
Setting: 8-mer, flanks averaged, mean of 2 arrays, mostly near background
Relative to: not given
Reading: higher = stronger binding
Measurement: E-score
Construct (chain): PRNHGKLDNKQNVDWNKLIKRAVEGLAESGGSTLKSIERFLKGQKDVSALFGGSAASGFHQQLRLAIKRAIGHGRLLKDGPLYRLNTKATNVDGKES
ACCAGGAT: -0.0582
ACTACCAG: -0.263
GGCATATA: 0.0972
AACCGTTG: -0.0977
AGAGCTAC: -0.065
ACACATTC: -0.172
CCGTATAA: -0.0124
GTCGGAGA: 0.0955
CCTTCTCA: -0.091
GACGAGTC: -0.0497
TCACAGCA: 0.0247
CCTGACAG: -0.0388
CACATCGA: -0.0648
ACGATAAT: -0.00483
GACAGGGC: 0.0701
ATCATGAT: -0.032
ACAGATAA: 0.00855
AAAACTAA: 0.153
TAGGCTAA: -0.132
GGTACGGA: -0.0766
GAAGCAGC: 0.14
CCCCTATA: -0.223

Sample 5
Target: Ras GTPase-activating protein-binding protein 1, full length (G3BP1, Homo sapiens, UniProt Q13283)
Sequence of UniProt Q13283 (whole entry, looked up): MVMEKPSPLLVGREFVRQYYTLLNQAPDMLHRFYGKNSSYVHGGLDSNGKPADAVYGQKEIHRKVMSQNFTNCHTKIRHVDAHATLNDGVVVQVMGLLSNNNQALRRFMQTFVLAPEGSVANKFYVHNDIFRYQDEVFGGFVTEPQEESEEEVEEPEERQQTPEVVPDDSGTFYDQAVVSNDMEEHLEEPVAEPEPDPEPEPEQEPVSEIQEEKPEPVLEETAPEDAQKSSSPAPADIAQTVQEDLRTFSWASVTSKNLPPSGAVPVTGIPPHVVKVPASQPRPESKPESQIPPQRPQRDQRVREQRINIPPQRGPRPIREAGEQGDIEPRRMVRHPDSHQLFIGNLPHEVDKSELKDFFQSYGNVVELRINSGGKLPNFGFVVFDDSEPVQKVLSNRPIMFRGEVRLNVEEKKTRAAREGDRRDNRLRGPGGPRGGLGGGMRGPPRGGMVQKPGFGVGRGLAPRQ
Method: RNA Bind-n-Seq
Form: RNA
Matrix: in vitro
Concentration: 200 nM
Setting: whole 134-nt RNA, ends assumed
Added: 150 mM LiCl
Relative to: input library
Reading: higher = stronger binding
Measurement: log2 enrichment
Library: 7-deaza-guanosine replaces G
Constant ends, left off below: GGGAGUUCUACAGUCCGACGAUC … UGGAAUUCUCGGGUGUCAAGG
AAGUCCUGUGCUACACAUCGUAUGUACCGAAUCGGGAAAGGGUUUUUUUGGGUGGGAAAGUAUUAUGUUACGCCGUUCGGAUCUGCACUU: -0.954
UUAAGUGUAUUGGAGCCCCAAGUUCUCAAUUAUUUGAGCCUCCGGGCGACAGAGCAAGAAAAGGUGAGUGGAUAGCGCAGGCAUAUUGGU: -0.334
AGUCCUGUGCUACACAUCGUAUGUACCGAAUCGGCCCCCGGCCCCCGGCCCCCGGGGAAAGUAUUAUGUUACGCCGUUCGGAUCUGCACU: 0.358
CCUCAAGUCCUGUGCUACACAUCGUAUGUACCGAAUCGGGGUGGUGGGGUGGGAAAGUAUUAUGUUACGCCGUUCGGAUCUGCACUUCCA: -0.102
CCUGUGCUACACAUCGUAUGUACCGAAUCGGGUUUUUUUGGGAAAAAAAGGGAAAAAGGGAAAGUAUUAUGUUACGCCGUUCGGAUCUGC: -1.66
CCUCAAGUCCUGUGCUACACAUCGUAUGUACCGAAUCGGAGGUUUUUGGUGGAAAGUAUUAUGUUACGCCGUUCGGAUCUGCACUUCCAG: -0.318
UCAAGUCCUGUGCUACACAUCGUAUGUACCGAAUCGGAGGAAAAAGGUUUUUGGAAAGUAUUAUGUUACGCCGUUCGGAUCUGCACUUCC: -0.386
AAGUCCUGUGCUACACAUCGUAUGUACCGAAUCGGUUUUUUUGGAAAAAGGAAAGGAAAGUAUUAUGUUACGCCGUUCGGAUCUGCACUU: -2.27
AGUCCUGUGCUACACAUCGUAUGUACCGAAUCGGGGCCCCGGGGCCCCGGGGCCCCGGAAAGUAUUAUGUUACGCCGUUCGGAUCUGCAC: -0.0682
CACCGACAACACGCACCCACACAGACACAGAGGGAAGGGGUUGGGAUGGGGACAGGGUGCACAGCAGGGCGGGGUAGGACCCCAGCCCCU: 0.0554
GUCCUGUGCUACACAUCGUAUGUACCGAAUCGGGGAGGGGUUUUUGGGGUUUUUGGGGAAAGUAUUAUGUUACGCCGUUCGGAUCUGCAC: 0.36

Excerpt of the above (sample 1):
AUUGCAUACCAGUGUAAAAAGACUCUGCCUCCCCCCUUUUUGGCUUUUUUACUGGGCUUGGCUGGCCUUGCAGUUUACCAGAUUCAUUUACAGACUCUCUGCUCUGUAUG: 0.854
GAGCACAUCCAGGAUUAGAUAAGGUACUUAAGUACCUGCCGGCCCACUGUGCACUGCUUGUGAGAAAAUGGAUUAAAAACUAUUCUUACAUUUGUUUUGCCUUUCCUCCU: 0.256
UUUGCAGGCUAGACAUAACCCACUGAUGGAAAUGGUGAAGAAUGAGCUUCAUGUAGGUUUAAAAGUGUAUUCUGAGCCUGUAGAUGAUUAAUCAGGUUUUUAUUCAAUCA: 0.799
GCAUUGGGGAUUUUUGUUCUCAGCUCCCAGGCCGCACUGAACACAGUGUUGCUGCCUUCAGUUUGGUUCUGGCCAUGAGGCCCCUAGUGGGAGCUUUGCCCUUAGGGCUG: 0.341
CAGGCCUGGCCCCUCUCUGGGAAGGUUGAGAGCUGAGACGGGCAGCCCUGUCCCUUCCUCCAGAUCCGUCUGGUUUUUUACACCGUUUGUUAAUAAAGCCUGAAACCGCU: 0.621
AAGUGAAAAUUUAUGAAGAGUAUUUGGAAGUGUGUACAGAAAUAAACUAGACUUACAGGUAGGCUAGAUCAGAACGUUAACAUAUGAACCUGCAGAAAUCUGGUAAGACU: 0.641
AAGGUCCCUUUCUGGCUUCUUGGUUCUCCAUGUGACCAAAGCCCAGUGUGGCUUCAUGGGAGCCCUGUUACUUCUCCAUGAAACCCCAGCUCUCUAGGCCUGACUGCCAC: 0.208
CCGGGACGCCUAGGAGCCUGGGGGACACUGGAAGAGGGGCCUGUCCAUCCUCACCAUCGCCUUCCCUUUUCUCCUGCACCCCUGUAGUCUACCUCUACAGUCUCCAUGAC: 0.352
UCGGUCAGAAGCCCACAGACCCGGAAGUUACCUUUCUUCCCGCCUCCCUGGACCAUAGAAGAGAUGUCACUCCUCUCUGGGUUUUAGUGGAGGGAGGGAGGCCUUCCAUU: 0.19
